{"data": "Measured values pooled from the literature", "note": "Numbered parts are unrelated; each lists some results of a single study. Substitutions count along the parent as printed."}
{"data": "Block 1", "target": "Centromere-binding protein 1, full length, N-terminal tag (CBF1, Saccharomyces cerevisiae, UniProt P17106, residues 1-351)", "technique": "protein-binding microarray", "form": "double-stranded DNA, one strand shown", "medium": "in vitro", "tested at": "0.8 µM", "setting": "whole 60-bp probe, no competitor", "direction": "higher = stronger binding", "all sequences stand within": "… GTCTTGATTCGCTTGACGCTGCTG", "UniProt P17106, sequence (whole entry, looked up)": "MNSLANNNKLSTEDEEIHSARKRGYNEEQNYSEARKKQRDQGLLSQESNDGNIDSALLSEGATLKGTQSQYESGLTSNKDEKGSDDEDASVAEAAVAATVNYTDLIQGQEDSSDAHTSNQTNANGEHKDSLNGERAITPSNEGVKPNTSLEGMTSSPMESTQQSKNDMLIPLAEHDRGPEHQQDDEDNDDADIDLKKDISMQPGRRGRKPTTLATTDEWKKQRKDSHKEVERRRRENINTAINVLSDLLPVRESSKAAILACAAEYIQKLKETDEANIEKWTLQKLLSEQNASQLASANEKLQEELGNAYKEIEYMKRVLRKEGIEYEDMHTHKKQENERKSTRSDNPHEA"}
{"Strand": "CTAGCCAGTTTGTTTCACGTAATTGGTAACGATTTC", "fluorescence intensity": "536 a.u."}
{"Strand": "GAACCCGTACCAGGAAGCGTGATAGAATCGGTATAG", "fluorescence intensity": "627 a.u."}
{"Strand": "CCTAACTACTATATTCACACGAGATAGCTTCGTACA", "fluorescence intensity": "593 a.u."}
{"Strand": "GAAAAGATCACGTACCATGTGCAGAATCTGAGATAG", "fluorescence intensity": "1920 a.u."}
{"Strand": "CTAGCCTAAAGACACAACGTGTTTGTTAATTATTTC", "fluorescence intensity": "733 a.u."}
{"Strand": "GAAAGCAAGCCACGCCATGTGATTAACCTTGCTTAG", "fluorescence intensity": "1790 a.u."}
{"Strand": "CCTAACTACTATAATCATCATTAATAGCTTCGTACA", "fluorescence intensity": "530 a.u."}
{"Strand": "CTATATATTACCCTGAACGTGGTGAATTGAAGTTTC", "fluorescence intensity": "580 a.u."}
{"Strand": "GAAGGGTAGCGACGGGATGTGACAATACCTTTCTAG", "fluorescence intensity": "525 a.u."}
{"Strand": "CCTAACTACTATATCCATGTGCCATAGCTTCGTACA", "fluorescence intensity": "612 a.u."}
{"Strand": "CTAGGAGATAGTGTAACCGTGACTTCATTTTTCTTC", "fluorescence intensity": "766 a.u."}
{"Strand": "GAAATAACAAAACAGGTGATAACCGTGATCCTGTAG", "fluorescence intensity": "1100 a.u."}
{"Strand": "GAATAACAAGAGGCGCACATGCCTTTTGACTCATAG", "fluorescence intensity": "559 a.u."}
{"Strand": "CTAACATAAAGGAAGCGCGTGATGTATCAGTAATTC", "fluorescence intensity": "1090 a.u."}
{"Strand": "CTATCGTGGATTCATCATCAGAATACGCCTGGCTTC", "fluorescence intensity": "532 a.u."}
{"Strand": "CTATGGCGACTTTTGCACGTGAACGACGTCCCCTTC", "fluorescence intensity": "5670 a.u."}
{"Strand": "CTACTGCATAATTCTGATGCAATATCCAACAACTTC", "fluorescence intensity": "597 a.u."}
{"Strand": "CTAGTTTTTTTAAACCATGTGCGAAGAAATTCTTTC", "fluorescence intensity": "1490 a.u."}
{"Strand": "GAAAGCCAACCTCATCACGATGAAGAAGATGTTTAG", "fluorescence intensity": "560 a.u."}
{"Strand": "GAAAAAATGTGATTTCATATCACGAAGTTTTTTTAG", "fluorescence intensity": "716 a.u."}
{"Strand": "GAATGGCAGCTCTATCACGAAGCGATGGAAAAATAG", "fluorescence intensity": "545 a.u."}
{"Strand": "GAAACCTTGGAATGTGTCACGTTGGGCATTTTTTAG", "fluorescence intensity": "1780 a.u."}
{"Strand": "TGTACGAAGCTATGTTTCCACGTTATAGTAGTTAGG", "fluorescence intensity": "559 a.u."}
{"data": "Block 2", "target": "CCND1, cyclin fold, Cln2 fusion (human)", "technique": "yeast growth competition, sequencing", "medium": "yeast", "setting": "weak parent motif", "relative to": "not given", "direction": "higher = stronger binding", "starting sequence": "SLBP docking peptide (human); ARYKRKLLINDFG; partner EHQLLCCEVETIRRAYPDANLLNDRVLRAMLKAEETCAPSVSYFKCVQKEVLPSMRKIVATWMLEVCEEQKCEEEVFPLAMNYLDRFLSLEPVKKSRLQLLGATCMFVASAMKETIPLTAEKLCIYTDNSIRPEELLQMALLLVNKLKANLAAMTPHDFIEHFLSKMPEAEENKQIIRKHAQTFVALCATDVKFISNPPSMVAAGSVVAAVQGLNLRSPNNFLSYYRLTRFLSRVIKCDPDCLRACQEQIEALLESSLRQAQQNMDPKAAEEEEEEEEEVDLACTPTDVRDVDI"}
{"Substitution": "K4E", "normalised enrichment score": -0.471}
{"Substitution": "L8S", "normalised enrichment score": -0.366}
{"Substitution": "K4F", "normalised enrichment score": 0.556}
{"Substitution": "G13Y", "normalised enrichment score": 0.243}
{"Substitution": "I9T", "normalised enrichment score": -0.0449}
{"Substitution": "I9A", "normalised enrichment score": -0.395}
{"Substitution": "G13N", "normalised enrichment score": -0.0475}
{"Substitution": "R5L", "normalised enrichment score": 0.677}
{"Substitution": "F12V", "normalised enrichment score": -0.442}
{"Substitution": "N10V", "normalised enrichment score": -0.127}
{"Substitution": "K6P", "normalised enrichment score": 0.503}
{"Substitution": "F12R", "normalised enrichment score": -0.346}
{"Substitution": "L7C", "normalised enrichment score": 0.12}
{"Substitution": "R5D", "normalised enrichment score": 0.0892}
{"Substitution": "L7K", "normalised enrichment score": -0.441}
{"Substitution": "G13I", "normalised enrichment score": -0.117}
{"Substitution": "F12D", "normalised enrichment score": -0.082}
{"Substitution": "R2T", "normalised enrichment score": 0.557}
{"Substitution": "I9D", "normalised enrichment score": -0.402}
{"Substitution": "L7F", "normalised enrichment score": 0.0828}
{"Substitution": "F12T", "normalised enrichment score": -0.954}
{"Substitution": "L7T", "normalised enrichment score": -0.378}
{"Substitution": "K6C", "normalised enrichment score": 0.535}
{"Substitution": "Y3V", "normalised enrichment score": 0.157}
{"Substitution": "L8P", "normalised enrichment score": -0.0685}
{"data": "Block 3", "target": "Sal-like protein 4, full length isoform B (SALL4, Homo sapiens, UniProt Q9UJQ4-2, residues 1-616)", "technique": "universal PBM", "form": "double-stranded DNA, one strand shown", "medium": "in vitro", "tested at": "not given", "setting": "8-mer, flanks averaged, mean of replicates", "direction": "higher = stronger binding"}
{"Strand": "AGAGACCA", "E-score": -0.159}
{"Strand": "ACTATAAT", "E-score": 0.364}
{"Strand": "GGGAGTAA", "E-score": 0.0327}
{"Strand": "GATACTCA", "E-score": 0.0743}
{"Strand": "ACCTCCAT", "E-score": -0.0435}
{"Strand": "GCATCAAA", "E-score": 0.161}
{"Strand": "CACCCGGG", "E-score": -0.34}
{"Strand": "GAATCACC", "E-score": -0.0506}
{"Strand": "ATTGTTAG", "E-score": 0.213}
{"Strand": "ATAGAAGG", "E-score": -0.0284}
{"Strand": "CGCCCTCA", "E-score": -0.251}
{"Strand": "ACGACGTG", "E-score": 0.0217}
{"Strand": "GGTTCAGA", "E-score": -0.0408}
{"Strand": "ACAGCAAC", "E-score": -0.0314}
{"Strand": "ACTAACAA", "E-score": 0.168}
{"Strand": "CAGGTACC", "E-score": -0.261}
{"Strand": "CCGGCCTC", "E-score": -0.393}
{"Strand": "AGTAAGCA", "E-score": 0.113}
{"Strand": "CACATTCG", "E-score": 0.0847}
{"Strand": "GAAACGTA", "E-score": 0.17}
{"Strand": "CGTTGTGA", "E-score": 0.0256}
{"Strand": "GCTTAACC", "E-score": -0.0897}
{"Strand": "GCCTAACC", "E-score": -0.133}
{"Strand": "AGCTAGCG", "E-score": -0.208}
{"Strand": "ATTAGTTA", "E-score": 0.332}
{"data": "Further values, each from its own experiment"}
{"Substance": "PhoQ, residues 284 288 289 292 302 303 SMYGEC", "target": "PhoP, residues 12 14 15 18 19 SYFRT (Escherichia coli, UniProt P23836)", "assay": "Sort-seq, refers to: YFP reporter", "test system": "E. coli", "conditions": "PhoQ-PhoP variant library, together with: 10 µM Mg2+", "how to read": "relative to: high Mg2+ state, higher = stronger signaling", "quantity": "fold induction", "value": 1.41}
{"note": "For quick reference, copied from above (block 2):"}
{"Substitution": "I9D", "normalised enrichment score": -0.402}
{"Substitution": "R2T", "normalised enrichment score": 0.557}
{"Substitution": "F12V", "normalised enrichment score": -0.442}
{"Substitution": "G13I", "normalised enrichment score": -0.117}
{"Substitution": "K6P", "normalised enrichment score": 0.503}
